Results collected from several papers.
Every numbered part comes from another study and shows a few of its results, in no order. Changes are numbered by the printed parent chain.

Series 1 — technique: DHFR PCA, deep sequencing; medium: yeast; with: (+)-ABA 0.11 µM; relative to: wild-type fitted maximum; reading: higher = stronger binding
Target: ABI1, truncated, D143A, DHFR fusion (Arabidopsis thaliana)
Setting: methotrexate growth selection, single substitutions
Starting sequence: PYL1, truncated, DHFR fusion (Arabidopsis thaliana); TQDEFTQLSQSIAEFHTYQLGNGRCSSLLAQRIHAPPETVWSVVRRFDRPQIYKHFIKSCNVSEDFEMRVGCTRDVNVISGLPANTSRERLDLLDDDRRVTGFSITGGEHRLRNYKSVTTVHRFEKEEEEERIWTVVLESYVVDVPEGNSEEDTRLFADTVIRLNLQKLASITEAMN; partner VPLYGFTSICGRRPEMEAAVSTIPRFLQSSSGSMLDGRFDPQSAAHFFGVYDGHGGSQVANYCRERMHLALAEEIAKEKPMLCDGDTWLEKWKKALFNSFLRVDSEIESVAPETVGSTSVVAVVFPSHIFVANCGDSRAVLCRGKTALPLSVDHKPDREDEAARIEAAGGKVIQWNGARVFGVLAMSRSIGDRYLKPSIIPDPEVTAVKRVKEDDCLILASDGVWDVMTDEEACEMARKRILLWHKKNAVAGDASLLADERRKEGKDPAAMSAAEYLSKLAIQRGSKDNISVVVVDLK
Change	relative binding score
Y115D	-3.14%
V142N	-0.701%
L82G	47.8%
V145I	51.6%
M68Y	0.034%
T17S	17.2%
A13D	36.5%
P50T	1.29%
E38T	3.72%
E129H	28.2%
V62E	1.24%
F56A	1.15%
R88W	-3.27%
S11F	23.5%

Series 2 — target: CCNB2, cyclin fold, Cln2 fusion (human); technique: yeast growth competition, sequencing; medium: yeast; setting: weak parent motif; relative to: not given; reading: higher = stronger binding
Starting sequence: RBL2 docking peptide (human); STTRRRLFVENDS; partner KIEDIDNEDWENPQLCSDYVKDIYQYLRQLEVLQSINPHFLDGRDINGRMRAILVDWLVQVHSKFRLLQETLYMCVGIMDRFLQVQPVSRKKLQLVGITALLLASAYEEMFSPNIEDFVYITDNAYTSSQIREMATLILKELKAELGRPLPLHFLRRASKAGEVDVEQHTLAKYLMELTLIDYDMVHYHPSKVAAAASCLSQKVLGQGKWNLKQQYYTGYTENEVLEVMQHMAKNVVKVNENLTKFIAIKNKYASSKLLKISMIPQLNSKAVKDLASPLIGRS
Change	normalised enrichment score
STKRRRLFVENDS [T3K]	0.368
STTRRRLFVTNDS [E10T]	0.066
STTRRRLFVENQS [D12Q]	0.221
STTRRRLEVENDS [F8E]	-0.0127
STTRRRLFEENDS [V9E]	0.209
STTRRRLFVESDS [N11S]	0.421
STTRRRLFVENTS [D12T]	0.395
STNRRRLFVENDS [T3N]	0.0466
STTRRRAFVENDS [L7A]	0.716
TTTRRRLFVENDS [S1T]	0.25
STTRRRLRVENDS [F8R]	0.357
STTRRRLFVINDS [E10I]	0.0266
STTRRRLFVEQDS [N11Q]	0.477
STTRRRLFVVNDS [E10V]	0.757
STTRRPLFVENDS [R6P]	-0.366
STTRQRLFVENDS [R5Q]	0.755
STQRRRLFVENDS [T3Q]	0.0942
STTRRRLFVENYS [D12Y]	0.47
STTRRRLFVENHS [D12H]	0.49
STTRRRMFVENDS [L7M]	-0.00755
STTRRRLFVWNDS [E10W]	0.0412
STTRRRLFVENES [D12E]	-0.033
STTRRRLFVEGDS [N11G]	0.804
STTRRRLFVCNDS [E10C]	0.191
STRRRRLFVENDS [T3R]	1.02

Series 3 — technique: competition protein-binding microarray; form: double-stranded DNA, one strand shown; medium: in vitro; concentration: 2 µM; with: Cbf1 competitor, 0.05 µM; reading: higher = stronger binding; all sequences stand within: … GTCTTGATTCGCTTGACGCTGCTG
Target: Phosphate system positive regulatory protein PHO4, full length, GST-tagged (PHO4, Saccharomyces cerevisiae, UniProt P07270, residues 1-312)
Setting: whole 60-bp probe, lowest competitor level
Construct (chain): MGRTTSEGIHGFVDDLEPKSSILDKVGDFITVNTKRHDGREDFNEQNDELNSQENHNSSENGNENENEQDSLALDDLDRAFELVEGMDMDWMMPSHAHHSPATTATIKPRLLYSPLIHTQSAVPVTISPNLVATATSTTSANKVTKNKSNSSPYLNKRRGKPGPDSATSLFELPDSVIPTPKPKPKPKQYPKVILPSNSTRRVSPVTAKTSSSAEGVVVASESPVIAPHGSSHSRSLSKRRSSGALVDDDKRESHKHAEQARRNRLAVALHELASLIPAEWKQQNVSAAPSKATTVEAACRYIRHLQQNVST
Strand	fluorescence intensity
TAACTAATCAAATGTATCGTGACGGGGTGTTGCATC	5710 a.u.
TGAAAAGATGAATCGCACGTGAACCATATTATAATC	13700 a.u.
AAAGCGGTAATTTGATCGGTGGGTGCAGATATCTAT	3830 a.u.
CTTTCCCGATCTTTTCACGTGCCATTAGCACATTTG	15900 a.u.
CGTCCTAGTGATTGGGAGGTGGGTGCCATGAGGAAG	6970 a.u.
ACTCGGGTGTCCTGGCATGTGGGTCCAACAATGGTC	10800 a.u.
AACAGACCTGACGGCCACGATGCAGCAGACGCTTAC	8820 a.u.
GATCAAACTGAGGATGACCTGGACATCTTGGTCGCT	2720 a.u.
GTTAATGATATGTTTCACGTGGTGAGATTTTTTTTG	13700 a.u.
TGGAATCGAGTGTCGCAATAGACCAAACTGAAGTAC	3580 a.u.
GTCTTGTCTCATTGTCACGTGGGTGTCCCCACTTCA	16300 a.u.
AGTTAGAGGAAAAAGCACGCAAAAAGGGCACACAGG	6470 a.u.
AAAGTACACAGGGTCCATGTGCTACACATACGAAGA	10600 a.u.
TGCATTCTTCAATATCAGGTGAAATGTGTCTTGCCT	4860 a.u.
TGTTGTAATTTTTGGCATGTGCTATTGTATGAAGAT	13100 a.u.
TTATATCCGACGTCCCACGTGTCGGCGAAGCTCGGA	18200 a.u.

Series 4 — technique: aptamer microarray, sandwich; form: DNA with 2'F-ANA; medium: in vitro; concentration: 200 nM; with: Cy3 exosite-II aptamer, 400 nM; reading: higher = stronger binding; strand: GGTTGGTGTGGTTGG
Target: Prothrombin, mature alpha-thrombin (F2, Homo sapiens, UniProt P00734)
Setting: whole 15-mer aptamer, many near background
Modification	mean fluorescence intensity
2'F-ANA at 1 2 3 13	178 a.u.
2'F-ANA at 1 2 3 7 11	219 a.u.
2'F-ANA at 2 6 8 13 14 15	121 a.u.
2'F-ANA at 3 6 7 8 12 13 15	1180 a.u.
2'F-ANA at 1 2 4 6 7 8 9 10 14 15	59 a.u.
2'F-ANA at 1 2 3 5 6 12	108 a.u.
2'F-ANA at 5 6 7 8 11 12 13 15	94 a.u.
2'F-ANA at 3 6 8 9 10 15	506 a.u.
2'F-ANA at 3 7 12 13 14	789 a.u.
2'F-ANA at 3 5 6 8 10 11 13 14	51.7 a.u.
2'F-ANA at 1 2 3 4 5 7 8 9 14	55.5 a.u.
2'F-ANA at 2 3 4 10 12 13 14 15	185 a.u.
2'F-ANA at 1 2 5 6 7 9 13 14	59.2 a.u.
2'F-ANA at 1 3 5 8 14	46.3 a.u.
2'F-ANA at 5 6 8 9 12	170 a.u.
2'F-ANA at 2 3 4 5 7 8 11 12	187 a.u.
2'F-ANA at 1 2 5 14	48.3 a.u.
2'F-ANA at 3 4 5 8 11 12 13 14	58.6 a.u.
2'F-ANA at 1 3 6 8 10 12 15	105 a.u.
2'F-ANA at 1 2 3 4 5 6 12 13 15	78 a.u.
2'F-ANA at 1 5 8 10 12 15	61 a.u.
2'F-ANA at 3 5 7 9 12 13 14 15	62.1 a.u.
2'F-ANA at 1 4 6 9 12 13	152 a.u.
2'F-ANA at 2 3 4 5 7 10 13 14	45.9 a.u.
2'F-ANA at 1 3 4 7 10 12 13	71.6 a.u.

Series 5 — target: CREBL2, bZIP domain (human); technique: DHFR protein complementation; medium: yeast; relative to: wild-type JUN-FOS pair; reading: higher = stronger binding
Setting: single substitutions, most at no-binding floor
Starting sequence: JUN, bZIP domain (human); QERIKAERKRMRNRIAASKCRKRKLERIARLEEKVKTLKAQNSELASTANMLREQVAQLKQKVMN; partner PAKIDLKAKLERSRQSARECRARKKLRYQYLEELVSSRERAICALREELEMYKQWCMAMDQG
Change	binding fitness [natural log]
V35Q	-1.55
S43A	-1.42
V35M	-1.57
A29K	-1.28
R30W	-1.42
E33D	-1.55
N42E	-1.39
E32G	-1.47
E54S	-1.53
N42F	-1.5
A46N	-1.54
L38R	-1.51
K34R	-1.29
T37E	-1.48
A57M	-1
A57L	-1.41

Single results of other studies
Substance	target	test	test system	conditions	how to read	quantity	result
PhoQ, residues 284 288 289 292 302 303 SIHMAM	PhoP, residues 12 14 15 18 19 LWHCS (Escherichia coli, UniProt P23836)	Sort-seq, item: YFP reporter	E. coli	PhoQ-PhoP variant library, with: 10 µM Mg2+	relative to: high Mg2+ state, higher = stronger signaling	fold induction	3.63

A few entries again (series 2):
Change	normalised enrichment score
STTRRRLFVENQS [D12Q]	0.221
STTRRRLEVENDS [F8E]	-0.0127
STTRRRLFEENDS [V9E]	0.209
STTRRRLFVESDS [N11S]	0.421
STTRRRLFVENTS [D12T]	0.395
STNRRRLFVENDS [T3N]	0.0466
STTRRRAFVENDS [L7A]	0.716
TTTRRRLFVENDS [S1T]	0.25
STTRRRLRVENDS [F8R]	0.357
STTRRRLFVINDS [E10I]	0.0266
STTRRRLFVEQDS [N11Q]	0.477
STTRRRLFVVNDS [E10V]	0.757
STTRRPLFVENDS [R6P]	-0.366
STTRQRLFVENDS [R5Q]	0.755
STQRRRLFVENDS [T3Q]	0.0942
